Experimental data from different studies.
Each line is one published result; not all experiments were run side by side. Values joined by “and” are separate records of one study, mostly repeats; a detail may differ. ± gives the spread as reported.

SMILES | assay | system | conditions | AUC(0-last)
C[C@]12C=CC(=O)C=C1CC[C@@H]1[C@@H]2[C@@H](O)C[C@@]2(C)[C@H]1C[C@H]1O[C@@H](C3CCCCC3)O[C@]12C(=O)CO | – | children with asthma, serum | inhaled, 160 µg ciclesonide, day 7, HFA-MDI with spacer, steady state | 0.00061 ± 4e-05 µg·h/mL
C[C@@H](O)[C@H]1C(=O)N2C(C(=O)O)=C(S[C@@H]3CN[C@H](C(=O)N(C)C)C3)[C@H](C)[C@H]12 | UHPLC, noncompartmental | pig (Danish Landrace), plasma, free concentration | iv infusion, 1000 mg over 10 min, with: vancomycin co-administered | 51.9 µg·h/mL
O=C(Nc1nc2cccc(-c3ccc(CN4CCS(=O)(=O)CC4)cc3)n2n1)C1CC1 | – | healthy subjects, plasma | oral, 100 mg single dose, 1 h after itraconazole, fasting, mean, with: itraconazole 200 mg | 3.11 µg·h/mL
CCOc1ccc(Cc2cc([C@@H]3S[C@H](CO)[C@@H](O)[C@H](O)[C@H]3O)c(OC)cc2C)cc1 | – | Japanese type 2 diabetes patients, plasma | oral, 5 mg single dose, eGFR 45-59 mL/min/1.73 m^2 | 2.12 ± 0.804 µg·h/mL
CN[C@H](CC(C)C)C(=O)N[C@H]1C(=O)N[C@@H](CC(N)=O)C(=O)N[C@H]2C(=O)N[C@H]3C(=O)N[C@H](C(=O)N[C@H](C(=O)O)c4cc(O)cc(O)c4-c4cc3ccc4O)[C@H](O)c3ccc(c(Cl)c3)Oc3cc2cc(c3O[C@@H]2O[C@H](CO)[C@@H](O)[C@H](O)[C@H]2O[C@H]2C[C@](C)(N)[C@H](O)[C@H](C)O2)Oc2ccc(cc2Cl)[C@H]1O | microdialysis | Danish Landrace pigs, subcutaneous adipose tissue | intravenous, 1000 mg, 100 min infusion, with: meropenem | 86.8 µg·h/mL
Cc1c(Cl)c(C)[n+]([O-])c(Cl)c1-c1noc(-c2cc(O)c(O)c([N+](=O)[O-])c2)n1 | – | Parkinson's disease patients, plasma | oral, 50 mg, day 1, after first dose | 1.66 ± 1.13 µg·h/mL
COc1cccc(N2CCN(C3=Nc4c(F)cccc4[C@H](CC(=O)O)N3c3cc(C(F)(F)F)ccc3OC)CC2)c1 | – | healthy women, plasma | intravenous infusion, 240 mg, day 1, single dose, 30-min infusion | 30 ± 5.41 µg·h/mL
N[C@@H](Cc1ccc(O)c(O)c1)C(=O)O | – | rhesus and cynomolgus macaque, plasma | subcutaneous, dose not given, PDE9 inhibitor vehicle co-dosed | 0.34 µg·h/mL and 0.329 µg·h/mL

A few entries again:
SMILES | assay | system | conditions | AUC(0-last)
O=C(Nc1nc2cccc(-c3ccc(CN4CCS(=O)(=O)CC4)cc3)n2n1)C1CC1 | – | healthy subjects, plasma | oral, 100 mg single dose, 1 h after itraconazole, fasting, mean, with: itraconazole 200 mg | 3.11 µg·h/mL
